Results collected from several papers.
Every numbered part comes from another study and shows a few of its results, in no order.

Study 1 — technique: Sort-seq; refers to: YFP reporter; matrix: E. coli; notes: PhoQ-PhoP variant library; with: 10 µM Mg2+; baseline: high Mg2+ state; reading: higher = stronger signaling; endpoint: fold induction
Molecule: PhoQ, residues 284 288 289 292 302 303 GLASVI
target = PhoP, residues 12 14 15 18 19 TQCLL (Escherichia coli, UniProt P23836); value = 4.18
target = PhoP, residues 12 14 15 18 19 VHTVL (Escherichia coli, UniProt P23836); value = 5.65
target = PhoP, residues 12 14 15 18 19 ICWRQ (Escherichia coli, UniProt P23836); value = 16.8

Study 2 — technique: RNA Bind-n-Seq; molecule type: RNA; matrix: in vitro; concentration: 365 nM; baseline: no-protein control; reading: higher = stronger binding; endpoint: RBNS enrichment (R)
Target: RNA binding protein fox-1 homolog 2, RRM domain, GST-SBP tag (RBFOX2, Homo sapiens, UniProt O43251-10, residues 100-194)
Notes: natural RNA segment, single round, ends assumed
Shared flanks, not repeated: GGGAGUUCUACAGUCCGACGAUC … UGGAAUUCUCGGGUGCCAA
Construct (chain): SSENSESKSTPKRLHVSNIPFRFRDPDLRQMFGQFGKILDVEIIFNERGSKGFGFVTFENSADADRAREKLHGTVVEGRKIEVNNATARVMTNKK
Sequence = AAUCGGAUUAACUGGAAAAUAUAUCUGAAUUCAACUGCUGACUAUAAAUGGUAUUCUAAUAAAAUUGUGUACUAUCCUGUGUGCUUAGUUUUAAGAUCAACCAAUAGAUA; value = 0.367
Sequence = AAUUGCACAAAGUGUAGGUAUUCAUGUUAAUGGAUAUUUAAGCACAGUCCUAGAAGGUAUGUUUUAAGAAUACUGUGUAGUACACAUUAUUGCAACAUACACCUGAGAUU; value = 0.28
Sequence = CAAUCAUGGGCUCCCACCAAUAAACACUUUACGGGUGGGUGUGUGUGUGUGUGCGCGCGCGCGCAUGUGCGCAUACUGUGUAAUGUUGGAAAAGGGAUGAAAUUGAAGAA; value = 0.31
Sequence = AGAGGUAUGAGGCUGCAGAACCGGAGAGAUUUUCCUCUGUGCAGUGCUCUCUGGCUAAAGUCACGGUCAAACCUAAACACCGAGCCUCAUUAACCCAAGUGAACCAACCA; value = 0.237
Sequence = GCAUUCUCUCCUUACCUGCAGACUAUGCACAGUUCCUGGAGCAGAGGGAGAGGUGGUGUGGCUUGCCCUGCUGAGCCUUCUCGGCAGGAAUAAUAGUAAUAAAUGCACUU; value = 0.541
Sequence = AGAACGUAUAAUCAACUUUGUUGAAUAAUUUGUUCUAUUAAGGCUGUCUAAAGUAUGUGAUGUCUUCAUCAUAGUAUGAAGUGUUGAAAAUUAAUAACGAGCCUAGUUUA; value = 0.326
Sequence = ACUGUUCUGCGUUGGAACAGAUGGAGUGAGAAACCCUACAGCCUGCCCGAACCCAGACUCUCCCCCAAAGCCAAGACCUCCUAUGCAAUAAUGCCCCCCUCCAACCCCAC; value = 1.69

Study 3 — technique: protein-binding microarray; molecule type: double-stranded DNA, one strand shown; matrix: in vitro; concentration: 2540 nM top; notes: 60-bp whole probe; with: salmon DNA 0.4 mg/ml; baseline: random background probes; reading: higher = stronger binding; endpoint: fitted relative affinity; shared flanks, not repeated: GCCTAGCAC … GTCTTGATTCGCTTGACGCTGCTG
Target: Interferon regulatory factor 3, full length, phosphomimetic (IRF3, Homo sapiens, UniProt Q14653, residues 1-427, S386D/S396D/S398D/S402D/T404D/S405D)
Construct (chain): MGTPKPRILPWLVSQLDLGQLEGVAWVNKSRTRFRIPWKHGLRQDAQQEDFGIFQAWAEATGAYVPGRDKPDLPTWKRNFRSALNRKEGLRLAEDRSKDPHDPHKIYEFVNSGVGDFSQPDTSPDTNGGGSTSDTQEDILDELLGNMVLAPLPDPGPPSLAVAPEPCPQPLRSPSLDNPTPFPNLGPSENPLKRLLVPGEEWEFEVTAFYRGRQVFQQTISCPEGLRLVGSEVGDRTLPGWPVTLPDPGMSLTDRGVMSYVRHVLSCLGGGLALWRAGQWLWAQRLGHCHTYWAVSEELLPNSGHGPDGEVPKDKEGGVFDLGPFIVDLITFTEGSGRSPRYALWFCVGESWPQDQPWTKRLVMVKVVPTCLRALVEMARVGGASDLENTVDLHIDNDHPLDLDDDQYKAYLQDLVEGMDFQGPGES
Sequence = TTATGTATCGGTATCGGTTAGTGCTAG; value = 5.23 z-score
Sequence = GACAGACTGGGGACTGGGGACGTGCTA; value = -0.782 z-score
Sequence = TCACCTTTGCCTCCAGGACTGTGCTAG; value = 0.442 z-score
Sequence = AAACTTACCTCACTCGTTAAGTGCTAG; value = 0.517 z-score
Sequence = GACGATATCCTACTGCTGACGTGCTAG; value = 0.767 z-score

Study 4 — technique: competition protein-binding microarray; molecule type: double-stranded DNA, one strand shown; matrix: in vitro; concentration: 2 µM; with: Pho4 competitor, 0.05 µM; reading: higher = stronger binding; endpoint: fluorescence intensity
Target: Centromere-binding protein 1, full length, His-tagged (CBF1, Saccharomyces cerevisiae, UniProt P17106, residues 1-351)
Sequence of UniProt P17106 (whole entry, looked up): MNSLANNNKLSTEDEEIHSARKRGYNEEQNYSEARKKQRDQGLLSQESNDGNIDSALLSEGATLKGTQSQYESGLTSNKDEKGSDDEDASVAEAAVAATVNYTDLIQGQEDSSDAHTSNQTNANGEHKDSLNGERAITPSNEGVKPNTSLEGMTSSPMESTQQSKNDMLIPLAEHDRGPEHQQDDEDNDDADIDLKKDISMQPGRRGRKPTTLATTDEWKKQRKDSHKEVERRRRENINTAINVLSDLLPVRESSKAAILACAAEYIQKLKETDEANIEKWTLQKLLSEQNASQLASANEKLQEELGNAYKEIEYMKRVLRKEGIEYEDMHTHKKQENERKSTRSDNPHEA
Notes: whole 60-bp probe, lowest competitor level
Sequence = AAACTATTTTTGGCAGACGTGTTGACTGATGATGATGTCTTGATTCGCTTGACGCTGCTG; value = 89.3 a.u.
Sequence = TACTGACAAGATCGGCACGTTCGCCTAACCTGCGGTGTCTTGATTCGCTTGACGCTGCTG; value = 64.4 a.u.
Sequence = CTTTCCCGATCTTGAATGGTGGGTGTAGCACATTTGGTCTTGATTCGCTTGACGCTGCTG; value = 74.9 a.u.
Sequence = AACATCTGCGGACAGCACGTGCGGATTAATTCTCAAGTCTTGATTCGCTTGACGCTGCTG; value = 3010 a.u.

A few entries again (study 3):
Sequence = TTATGTATCGGTATCGGTTAGTGCTAG; value = 5.23 z-score
Sequence = GACAGACTGGGGACTGGGGACGTGCTA; value = -0.782 z-score
